Measured values gathered from unrelated publications.
Numbered parts are unrelated; each lists some results of a single study.

Study 1
Target: Histone acetyltransferase KAT6A, both winged helices, GST fusion (KAT6A, Homo sapiens, UniProt Q92794, residues 1-181)
Method: protein binding microarray
Molecule type: double-stranded DNA, one strand shown
Sample: in vitro
Tested at: not given
Setting: 8-mer, flanks averaged, mean of 2 arrays, mostly near background
Baseline: not given
Reading: higher = stronger binding
Residues (chain): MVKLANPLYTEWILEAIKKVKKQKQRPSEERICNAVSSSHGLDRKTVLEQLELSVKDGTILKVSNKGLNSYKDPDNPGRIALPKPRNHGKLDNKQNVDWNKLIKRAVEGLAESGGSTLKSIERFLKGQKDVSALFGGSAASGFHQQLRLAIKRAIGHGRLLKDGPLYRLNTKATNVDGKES
| Sequence | E-score |
| --- | --- |
| CTATGTTA | 0.00647 |
| ACCCACCT | -0.207 |
| CCATGGAA | -0.16 |
| CATTCTGA | -0.116 |
| TCAACCAA | -0.103 |
| CCAGAGGG | -0.199 |
| GCATTGAC | 0.0692 |
| GTCCCCTA | -0.167 |
| AAACATGG | -0.0273 |
| GAAGGGTC | -0.0528 |
| CCGCCTCC | 0.166 |
| GCGCGAAC | 0.275 |
| GTAATTTA | 0.019 |
| AAGTACGA | -0.102 |
| CACAATCC | -0.0474 |
| ATCGGCGA | 0.23 |
| AGGCGCCA | 0.121 |
| CAATACTG | -0.135 |

Study 2
Target: RING finger protein unkempt homolog, zinc fingers 1-6, SBP tag (UNK, Homo sapiens, UniProt Q9C0B0, residues 30-357)
Chain of UniProt Q9C0B0 (30-357, looked up): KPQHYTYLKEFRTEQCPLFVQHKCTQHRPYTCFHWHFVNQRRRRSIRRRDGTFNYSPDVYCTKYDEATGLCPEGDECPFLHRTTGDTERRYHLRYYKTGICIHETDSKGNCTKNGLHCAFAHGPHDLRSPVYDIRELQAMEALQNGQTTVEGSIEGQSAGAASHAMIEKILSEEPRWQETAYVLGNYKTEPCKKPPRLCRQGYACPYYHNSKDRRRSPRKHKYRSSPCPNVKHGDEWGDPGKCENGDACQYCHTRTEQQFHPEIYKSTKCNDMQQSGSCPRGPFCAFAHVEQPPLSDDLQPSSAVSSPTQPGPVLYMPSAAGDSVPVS
Method: RNA Bind-n-Seq
Molecule type: RNA
Sample: in vitro
Tested at: 100 nM
Setting: RNA with constant flanks, vertebrate orthologous sites, ends assumed
Baseline: input RNA pool
Reading: higher = stronger binding
Constant ends, left off below: GGGAGUUCUACAGUCCGACGAUC … CAACAGAGGAUUGAGCAUCA
| Sequence | bound/input enrichment |
| --- | --- |
| UUACAGUCAUUGAUGGACUCUAUUUUUUUAUUAUUACUUGGACCUUGGUCGUUUUUAUACUAGCAAAAUGUCUUGUUUUACUUUGUGUUUUUUGGGGGGAGGGAGGGAGUGAACUUGCUG | 2.21 ratio |
| GGGACGUUUUGAUGUAAAAAUUGAAGUUAAGAGCUGAUCACAAGCACAAAUCUUUCCCACUAGCCAUUUAAACCAUUAAAAAGAUACAAAAACAAAACCUACUAGUCUUGAACAAACUGU | 2.26 ratio |
| ACGCUUUGAUAUUAAAUUUGACAUAAAAAGCAGCUGAUCGUAAGCACAACUCUCUUCUCCUAGCCAUUUAAAAAGGUAAAAAACAAAAAAGAAAACCUACUAGUCUUGAACAAACUGUCA | 0.882 ratio |
| GUUAGUUAUAUAGUUAGUUAUAUUUAAUGACCUCAUUCCUAAGUUACUUUCUCAUUAAUGUAGCUUUCAUUUCUGUUGCUGUUGUUUUAAUAAUAUGAUGUAAUAGAAAGUUUGUGCCAG | 0.973 ratio |
| CACAUCUGGUGAUAUUUGGCCUGGCCUUUCAGCAUAUGAUAAUAGUCCCAGAUCACCCCAUAGUCCUUCACCAAUUGCUACACCACCUAGUCAGAGUUCAUCUUGCUCUGAUGCCCCCAU | 1.15 ratio |
| GACUGGAUGCAGCGCAAAACGUACCCAAGGCAGUGACUUCGACUUCCUAUACGUUGUUAUUCAAAGUCACCUACUUUUAUUUCAGCGUCUAGACUGGAUUGUUAGCGCUACUGCUCUUUG | 0.346 ratio |
| AUUUAGAAUGUUAAUAAAUUGCUCUGAGUUUCCUCAAGUCCAUUUUGUAAGAUCAGACCAUAGGUGGGUGUUGUUUCUUUUAAGUGUGUGUACUGUGUCCAAUGUUACAUUUUUAGAAGU | 2.67 ratio |
| UUACACUUAAACUGGUAUUUUCAAACAAUAGGAAACUAUUUUUUCUUUUUUUACAGUUUAGCGUGUAUCUGGCUUGUACAUGGAAGACUAAAAUGUUUGAUUUGCUAAAUGUGGUCUUUG | 0.293 ratio |

Study 3
Organism: Saccharomyces cerevisiae
Read-out: cell growth
Method: competitive growth deep sequencing
Molecule type: peptide
Setting: peptide tiling library
Together with: cyclin E2-Cln2 fusion
Reading: direction not given
| Sequence | enrichment score |
| --- | --- |
| LKGRRLVFDN | -0.827 |
| SDSTVTKLDFDLEP | 1.14 |
| KDDDKAWEYEERDRRS | 0.525 |
| RDLFDCDFGDLTPLDF | 1.93 |
| KSKHEEEEWTDDDLVE | 1.72 |
| ESSTVSEEDYFSSHRD | 1.82 |
| VLLKRLQDVVSERANH | -1.24 |
| KPITLDTTDFQESFVT | 1.04 |
| TSPGPVLLHPSPSTTQ | 0.318 |
| ALLRRLQDVANDRGSH | 0.203 |
| PFSENVSAVQKLDFSD | 1.43 |
| CFRCLLFSFSGRSGVE | -0.923 |
| RVSGLLSWTLSRVLWL | -0.725 |
| MNQELLSVGSKRRRTG | 2.39 |
| QDYERRLLRQIVIQNE | -0.23 |
| TRRRLFVENDSP | 1.13 |
| GQLVIPLDELTLDTSF | 2.03 |
| LAKRALKYTD | -2.2 |
| SPREGHMMDALYAQVK | 1.45 |
| IQKKLRFEDTLEFVGF | -1.14 |
| ISRLFPPRTPGWHQLQ | -1.21 |
| PLRKAKRARLCSSSSS | 1.65 |
| KRRLDLETDHQY | 0.691 |
| RSLKLDGLLEEN | -0.608 |

Study 4
Target: Ras GTPase-activating protein-binding protein 1, RRM domain (G3BP1, Homo sapiens, UniProt Q13283)
Chain of UniProt Q13283 (whole entry, looked up): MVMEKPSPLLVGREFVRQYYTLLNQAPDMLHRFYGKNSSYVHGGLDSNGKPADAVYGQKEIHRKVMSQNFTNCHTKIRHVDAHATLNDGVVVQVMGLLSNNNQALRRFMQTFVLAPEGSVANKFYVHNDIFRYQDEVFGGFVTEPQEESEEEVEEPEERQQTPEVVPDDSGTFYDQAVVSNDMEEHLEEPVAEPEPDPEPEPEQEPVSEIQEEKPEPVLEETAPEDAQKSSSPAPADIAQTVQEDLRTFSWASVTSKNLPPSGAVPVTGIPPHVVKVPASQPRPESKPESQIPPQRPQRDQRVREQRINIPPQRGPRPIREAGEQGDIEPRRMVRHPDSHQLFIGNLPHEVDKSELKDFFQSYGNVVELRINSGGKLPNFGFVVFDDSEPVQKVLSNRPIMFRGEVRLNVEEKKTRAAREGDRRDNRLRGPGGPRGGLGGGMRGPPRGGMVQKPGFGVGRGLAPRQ
Method: RNA Bind-n-Seq
Molecule type: RNA
Sample: in vitro
Tested at: 1 µM
Setting: whole 134-nt RNA, ends assumed
Together with: 150 mM KCl
Baseline: input library
Reading: higher = stronger binding
Constant ends, left off below: GGGAGUUCUACAGUCCGACGAUC … UGGAAUUCUCGGGUGUCAAGG
| Sequence | log2 enrichment |
| --- | --- |
| AAGUCCUGUGCUACACAUCGUAUGUACCGAAUCGGGAAAAGGAAAAGGGAAAAGGGAAAGUAUUAUGUUACGCCGUUCGGAUCUGCACUU | -0.0453 |
| AGUCCUGUGCUACACAUCGUAUGUACCGAAUCGGGGCCCCGGGCCCCGGGGCCCCGGAAAGUAUUAUGUUACGCCGUUCGGAUCUGCACU | 0.188 |
| GUGCUACACAUCGUAUGUACCGAAUCGGGGAAAAAAAGGGGAAAAAAAGGGGAAAAAAAGGGGAAAGUAUUAUGUUACGCCGUUCGGAUC | 1.16 |
| UCCUCAAGUCCUGUGCUACACAUCGUAUGUACCGAAUCGGUGGUGGUUUGGAAAGUAUUAUGUUACGCCGUUCGGAUCUGCACUUCCAGC | -0.224 |
| CCUGUGCUACACAUCGUAUGUACCGAAUCAAAUUUUUUUAAAUUUUUAAAUUUUUUUAAAAAAGUAUUAUGUUACGCCGUUCGGAUCUGC | -0.266 |
| UAACUUUAGAGGAGGAUCUGAUGGAUAUGGCGGUGGACGUGGAUUUGGGGAUGGCUAUAAUGGGUAUGGAGGAGGACCUGGAGGUGGCAA | -0.677 |
| GCAGGUAGUAAAAACAAAUGGAAAUGCUUCGGAUAGUGGCAGGGGUGGGGGUUGCUAAGGAAAGGGUGGGAUGGGAGUGGGUAAAGAGUU | 1.14 |
| UAACUUUAGAGGAGGAUCUGAUGGAUAUCGCAGUGGACGUGGAUUUGGGGAUGGCUAUAAUGGGUAUGGAGGAGGACCUGGAGGUGGCAA | -0.748 |
| GUCCUGUGCUACACAUCGUAUGUACCGAAUCAAACCCCCAAAUUUUUUUAAAUUUAAAAAAGUAUUAUGUUACGCCGUUCGGAUCUGCAC | -0.678 |

For quick reference, copied from above (study 4):
| Sequence | log2 enrichment |
| --- | --- |
| GUCCUGUGCUACACAUCGUAUGUACCGAAUCAAACCCCCAAAUUUUUUUAAAUUUAAAAAAGUAUUAUGUUACGCCGUUCGGAUCUGCAC | -0.678 |
| UAACUUUAGAGGAGGAUCUGAUGGAUAUCGCAGUGGACGUGGAUUUGGGGAUGGCUAUAAUGGGUAUGGAGGAGGACCUGGAGGUGGCAA | -0.748 |
| CCUGUGCUACACAUCGUAUGUACCGAAUCAAAUUUUUUUAAAUUUUUAAAUUUUUUUAAAAAAGUAUUAUGUUACGCCGUUCGGAUCUGC | -0.266 |
| GUGCUACACAUCGUAUGUACCGAAUCGGGGAAAAAAAGGGGAAAAAAAGGGGAAAAAAAGGGGAAAGUAUUAUGUUACGCCGUUCGGAUC | 1.16 |
| UAACUUUAGAGGAGGAUCUGAUGGAUAUGGCGGUGGACGUGGAUUUGGGGAUGGCUAUAAUGGGUAUGGAGGAGGACCUGGAGGUGGCAA | -0.677 |
| UCCUCAAGUCCUGUGCUACACAUCGUAUGUACCGAAUCGGUGGUGGUUUGGAAAGUAUUAUGUUACGCCGUUCGGAUCUGCACUUCCAGC | -0.224 |
| AAGUCCUGUGCUACACAUCGUAUGUACCGAAUCGGGAAAAGGAAAAGGGAAAAGGGAAAGUAUUAUGUUACGCCGUUCGGAUCUGCACUU | -0.0453 |
| GCAGGUAGUAAAAACAAAUGGAAAUGCUUCGGAUAGUGGCAGGGGUGGGGGUUGCUAAGGAAAGGGUGGGAUGGGAGUGGGUAAAGAGUU | 1.14 |
| AGUCCUGUGCUACACAUCGUAUGUACCGAAUCGGGGCCCCGGGCCCCGGGGCCCCGGAAAGUAUUAUGUUACGCCGUUCGGAUCUGCACU | 0.188 |
